# Results pooled from the literature.
# A part holds a random share of what one study measured.

# Study 1
# Target: RNA binding protein fox-1 homolog 2, RRM domain, GST-SBP tag (RBFOX2, Homo sapiens, UniProt O43251-10, residues 100-194)
# Technique: RNA Bind-n-Seq
# Form: RNA
# Medium: in vitro
# Tested at: 365 nM
# Setting: natural RNA segment, single round, ends assumed
# Reference: no-protein control
# Direction: higher = stronger binding
Strand,RBNS enrichment (R)
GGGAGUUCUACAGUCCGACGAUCCUCUCCCGUUGAGCACUAGCAGCUGGAGGAGUUGGGAGUUCAUGGCUAUCAUGGUUGUGUUAAUCGAUUGUGGGGAUGAAAUGUCAUUGUGUAUGGAAGGCGGGGCUCAUUGGAAUUCUCGGGUGCCAA,0.957
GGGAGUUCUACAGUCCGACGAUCAGGACAGAGGGAGAAAGAUCUGAUCCAAAUGAGAACAGAUUGGUUAUUGCAGGUAUCACAGCCUAAAGAAAUUAUCUUUUUGCAAAAGAAAUAUUAAAUGAUUUAGCAGUUGGAAUUCUCGGGUGCCAA,0.612
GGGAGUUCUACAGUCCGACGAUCGUCUAUUUGGACUCUAAGCUCUACGGGUGACAGAUCUUGUUUCUGAAGAUGGUUUAAGUUAUAGCUUCUUAAACGAAAGAAUAAAAUACUGCAAAAUGUUUUUAUAUUUGUGGAAUUCUCGGGUGCCAA,1.22
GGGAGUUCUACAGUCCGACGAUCUGAAGGGCGAUGCCUCGCCCGAGGCUUUGGGCUGCUGCACUGCAUGCUGGGACUGCUCCUACUCUCUGUCCCACCCCUCACCCAGCUGUGGUCCGGCUUUGGGAGAGUGGUGGAAUUCUCGGGUGCCAA,8.66
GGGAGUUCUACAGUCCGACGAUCAUAGAUAUGCACCUUUUUCUACAUGUAUGGCCUUUACUUACUACACAGCAAGUAGGCCUCAAAGUAAUCUUCCUCUUUCCCAUCAAUCAUCUUCUGCCAAGCAUUCAGGCUGGAAUUCUCGGGUGCCAA,2.91
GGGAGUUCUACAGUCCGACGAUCAUUUUGUGAGUGUGUGAGCAUUUGAUUGGAAAUAAGAAAGUUAUUAAGUAAAUUUUUCGUUUUACUUUUUCCACAGCAGCUAACGUGUAGGGAGACAUUAAACCCACACCUGGAAUUCUCGGGUGCCAA,0.622
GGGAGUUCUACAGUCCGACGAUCACCCCUACCCUGGCUGCACCUGAGCUUGCUGCCCCUGGGGAUGUUGCCCAGUGGCUGUGCACUGCUCUGUGCACGUGCGUGUGUGUGAGUGCACUUGUGUGUGGGUGACUUGGAAUUCUCGGGUGCCAA,0.513
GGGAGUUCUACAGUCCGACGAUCAAUCUAAUGUUUAAAAGGUUAGGGAACAUGGAUAUUCGUACUCACAUCUGCGCCCCUCCCCCUUGCCUUCUGGGUACCAAACUUGAGGGAGGGGAGAGCUGUUGAAGCAGUGGAAUUCUCGGGUGCCAA,0.493
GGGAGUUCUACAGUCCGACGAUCGAGUUUACAAAGAAUAAGUAGAUUAUUGCCCAGUUAUUAACUAUUUUAAAUAAGAAAAUAAUCUACACAGUCAAGAUACCUAGCAAAUAAGUGGUGCCAUUGGAAUGUCAUGGAAUUCUCGGGUGCCAA,0.906
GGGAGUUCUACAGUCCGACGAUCUCCCAGAACUCUGAGCAAAGGGACUGUGAUGCCAAACCAGACUUUGGUCCCUUCCUGAGCCCUGCUCCAGUUGUCCCUAAGUGCCUUCCCUUUUGUCUGGACUGACCUGAUGGAAUUCUCGGGUGCCAA,0.534
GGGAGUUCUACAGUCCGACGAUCGUGUUUGCUGUCAUGCCCCAUGAGUAGCUCCUUACUUGGUCUGCUCAGGGCAUCCUAGGGAAUGUUCCUUUCCCCCACUCCUCCCUCCCUACCGUGGUGGAUUCCCAGCUUGGAAUUCUCGGGUGCCAA,0.434
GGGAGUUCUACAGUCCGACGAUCGAGCCAGCAGGCAGGCGGGAAGGGCCAAGUACAGGCAAUCACCCCCAUCUUCUUGGUUUGAAGCUUUAUCCAUGUAUCAUGUUCCGUGUAGCCAUUUUAUUUUUUAAGAAUGGAAUUCUCGGGUGCCAA,0.426

# Study 2
# Target: Prothrombin, mature alpha-thrombin (F2, Homo sapiens, UniProt P00734)
# Technique: aptamer microarray, sandwich
# Form: DNA with 2'F-ANA
# Medium: in vitro
# Tested at: 200 nM
# Setting: whole 15-mer aptamer, many near background
# Added: Cy3 exosite-II aptamer, 400 nM
# Direction: higher = stronger binding
# Strand: GGTTGGTGTGGTTGG
Modification,mean fluorescence intensity [a.u.]
2'F-ANA at 2 5 6 7 10,61.2
2'F-ANA at 2 4 5 7 8 10 11 12 15,53.2
2'F-ANA at 2 3 4 8 9 10 12,321
2'F-ANA at 3 4 6 8 10 12 14 15,160
2'F-ANA at 2 3 5 6 9 10 11,51.6
2'F-ANA at 1 6 7 8 9 13 14 15,57.1
2'F-ANA at 4 5 7 8 9 10 11 12 13 15,46.3
2'F-ANA at 4 5 6 10 11 13,45.2
2'F-ANA at 2 5 9 12,241
2'F-ANA at 1 2 4 6 8 10 11 13,50.9
2'F-ANA at 2 3 7 9 13 14 15,387
2'F-ANA at 2 7 8 12 13,658
2'F-ANA at 3 5 7 10 11 12 14 15,61.4
2'F-ANA at 4 8 9 10 14 15,59
2'F-ANA at 2 5 8 11 13,95
2'F-ANA at 3 5 7 8 9 10 12,72.4
2'F-ANA at 3 5 6 7 8 9 11 12 14,58
2'F-ANA at 1 3 4 6 7 8 9 10 12 13 14,57.8
2'F-ANA at 3 4 8 12 13 15,755
2'F-ANA at 7 11 12 13 15,647
2'F-ANA at 4 6 8 12 13,429

# Study 3
# Target: Max-binding protein MNT, bHLH-zipper, MAX partner unstated (MNT, Homo sapiens, UniProt Q99583, residues 220-300)
# Technique: protein-binding microarray
# Form: double-stranded DNA, one strand shown
# Medium: in vitro
# Tested at: not given
# Setting: k-mer, scored over probes, only values ≥0.25
# Direction: higher = stronger binding
# Construct (chain): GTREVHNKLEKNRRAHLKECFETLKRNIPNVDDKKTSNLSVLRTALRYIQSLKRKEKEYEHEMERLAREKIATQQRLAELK
Strand,E-score
ACGCGCGA,0.257
CGTGCGCA,0.376
CATCCCCA,0.252
ATGCGCTA,0.265
GTCCACGA,0.271
ATGTGGAC,0.258
GCCCCACA,0.324
CCCCCACG,0.365
ACGAGGAC,0.385
ACGCGTAG,0.258
CATGCGCC,0.428
ACGTGCAG,0.45
ACGTTGAG,0.298
AGACACGC,0.412
CGGCACGA,0.364
ACATGGAT,0.3
ACACGAGT,0.396
CAGCACGC,0.391
ACGTGAAA,0.352

# Study 4
# Target: Fragile X messenger ribonucleoprotein 1, C-terminal low-complexity region (Fmr1, Mus musculus, UniProt P35922)
# Technique: RNA Bind-n-Seq
# Form: RNA
# Medium: in vitro
# Tested at: 200 nM
# Setting: whole 134-nt RNA, ends assumed
# Added: 150 mM KCl
# Reference: input library
# Direction: higher = stronger binding
Strand,log2 enrichment
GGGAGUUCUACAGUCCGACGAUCGUCCUGUGCUACACAUCGUAUGUACCGAAUCGGGGCCCCCGGGGCCCCCGGCCCCCGGAAAGUAUUAUGUUACGCCGUUCGGAUCUGCACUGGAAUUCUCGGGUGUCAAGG,-0.424
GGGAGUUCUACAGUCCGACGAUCCUCAAGUCCUGUGCUACACAUCGUAUGUACCGAAUCGGGGAAGGGAAGGGAAGGAAAGUAUUAUGUUACGCCGUUCGGAUCUGCACUUCCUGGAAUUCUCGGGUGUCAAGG,0.0351
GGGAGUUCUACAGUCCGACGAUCCAAGUCCUGUGCUACACAUCGUAUGUACCGAAUCGGUUUUGGUUUUGGUUUUGGGAAAGUAUUAUGUUACGCCGUUCGGAUCUGCACUUCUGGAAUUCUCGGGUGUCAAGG,-0.767
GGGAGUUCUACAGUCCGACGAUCUCCUGUGCUACACAUCGUAUGUACCGAAUCGGGGAAAAAAGGAAAAAAGGGGAAAAAAGGAAAGUAUUAUGUUACGCCGUUCGGAUCUGCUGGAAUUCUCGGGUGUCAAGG,-0.332
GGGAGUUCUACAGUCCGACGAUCUCAAGUCCUGUGCUACACAUCGUAUGUACCGAAUCGGUGGUUUUUUUGGAAAGGAAAGUAUUAUGUUACGCCGUUCGGAUCUGCACUUCCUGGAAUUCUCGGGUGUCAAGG,-0.567
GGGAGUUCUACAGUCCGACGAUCUUCCAACAGUUAUGGGAUCCCAGAACCUGCUCAUGCAUACGCUCAACCUCAGACCACAACUCCUCUACCUGCAGUUUCCGGUUCUCCUGGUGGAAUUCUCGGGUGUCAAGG,0.2
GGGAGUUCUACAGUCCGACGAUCAGUCCUGUGCUACACAUCGUAUGUACCGAAUCGGGGAAAAAGGGGUUUGGGGAGGGGAAAGUAUUAUGUUACGCCGUUCGGAUCUGCACUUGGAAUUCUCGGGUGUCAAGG,0.576
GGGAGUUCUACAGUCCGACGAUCUGUUGAUGCUGUAAUUGCUGAACUUAAAAAGCAGUCUAAACCUGUGACCACCCCUGAAGAAAUUGCACAGGUAAGGACUUAACAUGUUACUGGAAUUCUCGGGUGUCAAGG,0.474
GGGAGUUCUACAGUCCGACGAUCUGGGAGGUGGAUUUUGAUUAUUUUUUUAGCUCAUUUCCAGGGGUGGGAAUUUUUUUUUAAUAUGUGUCAUGAAUAAAGUUGUUUUUGAAAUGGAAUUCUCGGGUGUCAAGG,0.221
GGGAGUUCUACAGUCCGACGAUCAGUCCUGUGCUACACAUCGUAUGUACCGAAUCGGGGUGGGGUUUGGGGAAAAAGGGGAAAGUAUUAUGUUACGCCGUUCGGAUCUGCACUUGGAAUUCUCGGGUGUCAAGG,0.788

# A few entries again (study 1):
Strand,RBNS enrichment (R)
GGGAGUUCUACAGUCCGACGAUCAUAGAUAUGCACCUUUUUCUACAUGUAUGGCCUUUACUUACUACACAGCAAGUAGGCCUCAAAGUAAUCUUCCUCUUUCCCAUCAAUCAUCUUCUGCCAAGCAUUCAGGCUGGAAUUCUCGGGUGCCAA,2.91
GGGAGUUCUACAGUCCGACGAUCAGGACAGAGGGAGAAAGAUCUGAUCCAAAUGAGAACAGAUUGGUUAUUGCAGGUAUCACAGCCUAAAGAAAUUAUCUUUUUGCAAAAGAAAUAUUAAAUGAUUUAGCAGUUGGAAUUCUCGGGUGCCAA,0.612
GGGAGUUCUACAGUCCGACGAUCUCCCAGAACUCUGAGCAAAGGGACUGUGAUGCCAAACCAGACUUUGGUCCCUUCCUGAGCCCUGCUCCAGUUGUCCCUAAGUGCCUUCCCUUUUGUCUGGACUGACCUGAUGGAAUUCUCGGGUGCCAA,0.534
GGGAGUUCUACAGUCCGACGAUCGUCUAUUUGGACUCUAAGCUCUACGGGUGACAGAUCUUGUUUCUGAAGAUGGUUUAAGUUAUAGCUUCUUAAACGAAAGAAUAAAAUACUGCAAAAUGUUUUUAUAUUUGUGGAAUUCUCGGGUGCCAA,1.22
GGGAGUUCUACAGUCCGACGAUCAUUUUGUGAGUGUGUGAGCAUUUGAUUGGAAAUAAGAAAGUUAUUAAGUAAAUUUUUCGUUUUACUUUUUCCACAGCAGCUAACGUGUAGGGAGACAUUAAACCCACACCUGGAAUUCUCGGGUGCCAA,0.622
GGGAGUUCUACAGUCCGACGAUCGUGUUUGCUGUCAUGCCCCAUGAGUAGCUCCUUACUUGGUCUGCUCAGGGCAUCCUAGGGAAUGUUCCUUUCCCCCACUCCUCCCUCCCUACCGUGGUGGAUUCCCAGCUUGGAAUUCUCGGGUGCCAA,0.434
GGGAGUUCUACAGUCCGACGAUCGAGCCAGCAGGCAGGCGGGAAGGGCCAAGUACAGGCAAUCACCCCCAUCUUCUUGGUUUGAAGCUUUAUCCAUGUAUCAUGUUCCGUGUAGCCAUUUUAUUUUUUAAGAAUGGAAUUCUCGGGUGCCAA,0.426
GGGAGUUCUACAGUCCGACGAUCACCCCUACCCUGGCUGCACCUGAGCUUGCUGCCCCUGGGGAUGUUGCCCAGUGGCUGUGCACUGCUCUGUGCACGUGCGUGUGUGUGAGUGCACUUGUGUGUGGGUGACUUGGAAUUCUCGGGUGCCAA,0.513
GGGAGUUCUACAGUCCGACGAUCCUCUCCCGUUGAGCACUAGCAGCUGGAGGAGUUGGGAGUUCAUGGCUAUCAUGGUUGUGUUAAUCGAUUGUGGGGAUGAAAUGUCAUUGUGUAUGGAAGGCGGGGCUCAUUGGAAUUCUCGGGUGCCAA,0.957
